Results gathered from unrelated publications.
Every numbered part comes from another study and shows a few of its results, in no order. Changes are numbered by the printed parent chain.

Block 1
Target: Prothrombin, mature alpha-thrombin (F2, Homo sapiens, UniProt P00734)
Technique: aptamer microarray, sandwich
Form: DNA with 2'F-ANA
Matrix: in vitro
Concentration: 200 nM
Notes: whole 15-mer aptamer, many near background
With: Cy3 exosite-II aptamer, 400 nM
Reading: higher = stronger binding
Sequence: GGTTGGTGTGGTTGG
Modification | mean fluorescence intensity
2'F-ANA at 1 2 5 6 9 10 11 13 14 | 50.1 a.u.
2'F-ANA at 1 3 5 6 7 13 14 15 | 55 a.u.
2'F-ANA at 1 2 3 7 8 9 10 12 13 | 77.5 a.u.
2'F-ANA at 1 3 5 6 8 12 | 147 a.u.
2'F-ANA at 2 8 9 12 13 14 15 | 170 a.u.
2'F-ANA at 1 2 6 7 8 13 15 | 129 a.u.
2'F-ANA at 5 6 7 11 12 15 | 111 a.u.
2'F-ANA at 1 3 7 8 9 10 13 15 | 116 a.u.

Block 2
Target: CCNF, cyclin fold, Cln2 fusion (human)
Technique: yeast growth competition, sequencing
Matrix: yeast
Notes: strong parent motif
Relative to: not given
Reading: higher = stronger binding
Starting sequence: SGO1 docking peptide (human); PLAKRALKYTDEK
Substitution | normalised enrichment score
D11A | 2.37
K4A | 1.42
K13A | 4.57
Y9A | 0.434
P1A | 2.36

Block 3
Target: Histone acetyltransferase KAT6A, both winged helices, GST fusion (KAT6A, Homo sapiens, UniProt Q92794, residues 1-181)
Technique: protein binding microarray
Form: double-stranded DNA, one strand shown
Matrix: in vitro
Concentration: not given
Notes: 8-mer, flanks averaged, mean of 2 arrays, mostly near background
Relative to: not given
Reading: higher = stronger binding
Target sequence (chain): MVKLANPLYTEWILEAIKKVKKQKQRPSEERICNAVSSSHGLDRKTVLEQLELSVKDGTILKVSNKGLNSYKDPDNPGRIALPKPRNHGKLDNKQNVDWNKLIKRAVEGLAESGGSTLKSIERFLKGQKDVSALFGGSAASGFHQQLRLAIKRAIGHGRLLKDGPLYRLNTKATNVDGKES
Sequence | E-score
TCTGTTAA | -0.0294
CAACACAG | -0.149
CGAGAGGC | -0.0225
CTGCCCAG | -0.182
CATGTTGA | 0.0562
CGCGAGTC | 0.255
AAGTCCAT | -0.162
TCCGTGCA | 0.196
GAGCGCCC | 0.107
CCTAAGAG | -0.242

Other studies, line by line
Molecule | target | test | test system | conditions | how to read | measurement | result
PhoQ, residues 284 288 289 292 302 303 SSYNSA | PhoP, residues 12 14 15 18 19 SEGLL (Escherichia coli, UniProt P23836) | Sort-seq, item: YFP reporter | E. coli | PhoQ-PhoP variant library, with: 10 µM Mg2+ | relative to: high Mg2+ state, higher = stronger signaling | fold induction | 11.3

Repeated from above (other studies, line by line):
Molecule | target | test | test system | conditions | how to read | measurement | result
PhoQ, residues 284 288 289 292 302 303 SSYNSA | PhoP, residues 12 14 15 18 19 SEGLL (Escherichia coli, UniProt P23836) | Sort-seq, item: YFP reporter | E. coli | PhoQ-PhoP variant library, with: 10 µM Mg2+ | relative to: high Mg2+ state, higher = stronger signaling | fold induction | 11.3
